Measured values collected from several papers.
Numbered parts are unrelated; each lists some results of a single study. Positions count from the first letter of the parent shown.

Study 1
Target: Interferon regulatory factor 3, full length, phosphomimetic (IRF3, Homo sapiens, UniProt Q14653, residues 1-427, S386D/S396D/S398D/S402D/T404D/S405D)
Chain of UniProt Q14653 (whole entry, unmodified, looked up): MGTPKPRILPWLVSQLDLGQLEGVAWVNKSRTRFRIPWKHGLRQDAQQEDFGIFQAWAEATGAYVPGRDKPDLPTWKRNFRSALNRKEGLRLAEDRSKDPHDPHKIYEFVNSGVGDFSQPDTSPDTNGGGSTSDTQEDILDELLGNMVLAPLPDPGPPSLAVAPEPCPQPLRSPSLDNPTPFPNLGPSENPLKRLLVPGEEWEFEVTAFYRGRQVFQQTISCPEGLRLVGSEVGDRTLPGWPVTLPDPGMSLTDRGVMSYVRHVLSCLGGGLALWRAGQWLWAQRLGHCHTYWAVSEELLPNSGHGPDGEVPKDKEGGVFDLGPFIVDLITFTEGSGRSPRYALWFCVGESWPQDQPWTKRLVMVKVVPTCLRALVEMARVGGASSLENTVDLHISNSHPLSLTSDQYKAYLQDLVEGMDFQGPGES
Method: protein-binding microarray
Molecule type: double-stranded DNA, one strand shown
Sample: in vitro
Tested at: 2540 nM top
Setting: 60-bp whole probe
Added: salmon DNA 0.4 mg/ml
Baseline: random background probes
Direction: higher = stronger binding
Constant ends, left off below: GCCTAGCAC … GTCTTGATTCGCTTGACGCTGCTG
`GACGGTAGCGACTTTCGGGACGTGCTA` — result for “fitted relative affinity”: 0.236 z-score.
For `GACGATCTCAGTCTCGAGAGGTGCTAG`, “fitted relative affinity” read 0.694 z-score.
`GACGGTATCCTACTCCTGACGTGCTAG` — result for “fitted relative affinity”: 3.95 z-score.
For `TTAGGTCTCCTTTTCCTTCAGTGCTAG`, “fitted relative affinity” read 5.15 z-score.
`TCATGTTTTCATTTTATACTGTGCTAG` — result for “fitted relative affinity”: 3.21 z-score.
For `TTAGGTATCGGGTTTCGGGTAGTGCTA`, “fitted relative affinity” read 2.68 z-score.
`GATGGTTTCGGGTATCGGGACGTGCTA`: “fitted relative affinity” 4.19 z-score.
Under “fitted relative affinity”, `GACGATCTCAGTATCGAAACGTGCTAG` is recorded as 1.36 z-score.

Study 2
Target: RNA binding protein fox-1 homolog 2, RRM domain, GST-SBP tag (RBFOX2, Homo sapiens, UniProt O43251-10, residues 100-194)
Method: RNA Bind-n-Seq
Molecule type: RNA
Sample: in vitro
Tested at: 365 nM
Setting: natural RNA segment, single round, ends assumed
Baseline: no-protein control
Direction: higher = stronger binding
Construct (chain): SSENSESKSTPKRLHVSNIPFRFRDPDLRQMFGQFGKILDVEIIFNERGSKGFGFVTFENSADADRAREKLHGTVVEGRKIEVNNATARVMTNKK
`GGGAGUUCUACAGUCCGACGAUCGUGAAGUGUCUUCUGUAUUCAAAUCAAAAAAUAAUAUAUUUAAGGUAUAUAAGUGUGAAUCUCCUAUAAUGAUGGAAGAAGAGGUUCUCUUGUCUUAGAUAGAAAAGAGCUGGAAUUCUCGGGUGCCAA`: “RBNS enrichment (R)” 1.72.
`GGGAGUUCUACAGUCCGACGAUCCAUUUUCAAAUAUCUUUUCAACUGUAAUGACUAUGACAGGAACUGAUUCAACUCUCAAUUUUCUUUAUGCAUCAUGGUAAAGCAUUGCAGCAGUGUUGUUUUGUUUGAAGUGGAAUUCUCGGGUGCCAA` — result for “RBNS enrichment (R)”: 0.985.
For `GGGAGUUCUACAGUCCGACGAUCUUUGUGCUUCUCAUGUAACAUUGGGAUUGUGUAGAUUUGAACCUUAUAACUUGAAUUUUAAAGAUAGUAGCAUUUUGAAGAUGCUUAAUAACCUUUUUAGGAAUAUGGAGUGGAAUUCUCGGGUGCCAA`, “RBNS enrichment (R)” read 0.379.
`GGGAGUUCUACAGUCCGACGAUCUCUUCCAAAAGUCACUUGAUUUAAGGGUUAUCCACAAGUUGUGCUUAUUUUGAUAUAGCAUUUGUUUCCUAAAUGUUUACUAAUCACUUUAUGCCAAAUGUCUUGCAGAUUGGAAUUCUCGGGUGCCAA`: “RBNS enrichment (R)” 0.285.
`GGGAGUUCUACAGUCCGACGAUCGGGAAGAGUGGGAAGGCCUGAGUGUGUGCAGCCUCCUCCUCUGCCCACCCAAUCCAGCCAGUUCCCUUCAGGGAGGUUGGUGUGACCUGCUGUAGGUUCACCUUUUAGGCUGGAAUUCUCGGGUGCCAA`: “RBNS enrichment (R)” 0.406.
Under “RBNS enrichment (R)”, `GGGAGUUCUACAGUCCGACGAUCACACCCCAGCUCACACAGCAAAAACAAUGGACAGGCCCAGAGGCUGAAGCAAACAGUGUCCCUUCUGGCUGUGUUGGAGCCUCCCCAGUAACCACCUAUUUAUUUUACCUUGGAAUUCUCGGGUGCCAA` is recorded as 0.9.
For `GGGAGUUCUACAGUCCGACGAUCGGGCUGCCUUCCGCCUGGGGCUCCCUGUGACCUCUCAGUCCCCUGGCCCGGCCAGCCACCGUCCCCAGCACCCAAGCAUGCAAUUGCCUGUCCCCCCCGGCCAGCCUCCCUGGAAUUCUCGGGUGCCAA`, “RBNS enrichment (R)” read 4.09.
`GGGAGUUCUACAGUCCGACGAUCUCUAAUGCUUCAAGUGUUGCUCUUGGAAAGCUGAUGAUGUCUCUUGUAGAAGAUGGACUCUGAAAAACAUUCCAGGAAACCAUGGCAGCAUGGAGAGCCUCUUAGUGAUUUGGAAUUCUCGGGUGCCAA`: “RBNS enrichment (R)” 2.3.

Other studies, line by line
P1: viral docking peptide; TSVRRALFTGGSD; partner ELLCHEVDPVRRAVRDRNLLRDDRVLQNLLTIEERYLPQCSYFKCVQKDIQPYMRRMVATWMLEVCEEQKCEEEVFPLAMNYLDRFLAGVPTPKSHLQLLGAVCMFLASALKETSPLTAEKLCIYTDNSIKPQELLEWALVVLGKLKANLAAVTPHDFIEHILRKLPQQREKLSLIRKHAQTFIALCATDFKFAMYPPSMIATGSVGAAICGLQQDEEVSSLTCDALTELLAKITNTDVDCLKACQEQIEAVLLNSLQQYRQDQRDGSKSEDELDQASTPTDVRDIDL
P2: PafA, mature enzyme, eGFP fusion (Elizabethkingia meningoseptica, UniProt Q9KJX5); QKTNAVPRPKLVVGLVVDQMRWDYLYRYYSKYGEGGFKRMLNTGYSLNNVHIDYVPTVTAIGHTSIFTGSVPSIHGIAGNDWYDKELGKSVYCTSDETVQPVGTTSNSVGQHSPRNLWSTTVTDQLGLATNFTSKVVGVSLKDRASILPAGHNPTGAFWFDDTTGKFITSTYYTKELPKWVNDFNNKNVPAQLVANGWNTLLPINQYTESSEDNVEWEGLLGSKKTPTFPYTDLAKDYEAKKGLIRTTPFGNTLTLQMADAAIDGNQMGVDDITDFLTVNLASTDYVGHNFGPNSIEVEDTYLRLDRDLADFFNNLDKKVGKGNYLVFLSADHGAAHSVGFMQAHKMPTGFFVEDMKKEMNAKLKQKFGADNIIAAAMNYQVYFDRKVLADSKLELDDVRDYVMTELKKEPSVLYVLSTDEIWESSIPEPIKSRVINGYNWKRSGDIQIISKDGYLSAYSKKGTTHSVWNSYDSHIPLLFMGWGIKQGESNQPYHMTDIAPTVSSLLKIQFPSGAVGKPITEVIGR
Under “normalised enrichment score”, `P1 T9F` is recorded as 0.368 (CCND2, cyclin fold, Cln2 fusion (human); yeast growth competition, sequencing; yeast; weak parent motif; baseline: not given, higher = stronger binding).
`P2 L478V`: “oxyanion analog dissociation constant” 2.89 µM (tungstate, free oxyanion; microfluidic competitive inhibition; in vitro, cell-free expressed; not given, derived from inhibition constants, unchanged parent 2230 nM; lower = stronger binding).
